Measured values gathered from unrelated publications.
Parts stem from different laboratories: compare values within a part only. Changes are numbered by the printed parent chain.

Set 1 — technique: protein-binding microarray; form: double-stranded DNA, one strand shown; medium: in vitro; concentration: 250 nM; setting: 60-bp whole probe; added: salmon DNA 0.4 mg/ml; reference: random background probes; direction: higher = stronger binding; all sequences stand within: GCCTAGCAC … GTCTTGATTCGCTTGACGCTGCTG
Target: Interferon regulatory factor 7, full length, phosphomimetic (IRF7, Homo sapiens, UniProt Q92985, residues 1-503, S101K/S471D/S472D/S475D/S476D/S477D/S483D/S484D/S487D)
Target sequence (chain): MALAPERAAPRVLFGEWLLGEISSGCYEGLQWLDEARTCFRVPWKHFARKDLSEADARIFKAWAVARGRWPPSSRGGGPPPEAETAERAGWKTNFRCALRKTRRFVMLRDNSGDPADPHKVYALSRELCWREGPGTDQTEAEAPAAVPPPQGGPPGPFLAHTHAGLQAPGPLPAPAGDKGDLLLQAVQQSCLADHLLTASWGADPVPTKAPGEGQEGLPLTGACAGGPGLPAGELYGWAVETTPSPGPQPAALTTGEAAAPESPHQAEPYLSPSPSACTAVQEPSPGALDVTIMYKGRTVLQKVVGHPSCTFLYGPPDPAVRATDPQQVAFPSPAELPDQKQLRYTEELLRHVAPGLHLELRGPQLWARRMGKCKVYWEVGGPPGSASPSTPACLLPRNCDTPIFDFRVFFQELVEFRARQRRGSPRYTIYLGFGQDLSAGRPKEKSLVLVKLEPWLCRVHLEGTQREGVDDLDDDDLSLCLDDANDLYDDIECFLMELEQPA
`TCATATATTATATATTTAACTGTGCTA` has a log fluorescence of 0.623 z-score.
The log fluorescence of `CTGCCTTTCAATCCTAGGCCGTGCTAG` is reported as 0.693 z-score.
The log fluorescence of `GACGGTTTCCTTGCCCTGACGTGCTAG` is reported as 1.01 z-score.
The log fluorescence of `GAGGATATCGGGTTTCGAGACGTGCTA` is reported as 2.57 z-score.
`TTAGTACTGGGTCTCGGTTAGTGCTAG` has a log fluorescence of 1.22 z-score.
With `GACGGTATCGACTATCGGGAGGTGCTA` the log fluorescence was -0.0613 z-score.
With `GAACCTTCCCCTCTAGGTTCGTGCTAG` the log fluorescence was 2.76 z-score.
With `TTCTGTATGGGCATTTTTCTAGTGCTA` the log fluorescence was -1.14 z-score.
With `GACGATATGAGTATCGAGACGTGCTAG` the log fluorescence was -0.0302 z-score.
The log fluorescence of `GACGGACTGGGCTTTCGGGACGTGCTA` is reported as -0.787 z-score.
`GACGATTCCAGTTTCGAGATGTGCTAG` has a log fluorescence of 5.93 z-score.
For `AGTGGTATAGCACTAAGGGAGTGCTAG`, the log fluorescence was -1.19 z-score.

Set 2 — technique: Sort-seq; measured: YFP reporter; medium: E. coli; setting: PhoQ-PhoP variant library; added: 10 µM Mg2+; reference: high Mg2+ state; direction: higher = stronger signaling
Substance: PhoQ, residues 284 288 289 292 302 303 AGHLVA
It gave 0.685 for fold induction (PhoP, residues 12 14 15 18 19 GMGLL (Escherichia coli, UniProt P23836)).
The fold induction was 4.46 (PhoP, residues 12 14 15 18 19 LFHKL (Escherichia coli, UniProt P23836)).
The fold induction was 19 (PhoP, residues 12 14 15 18 19 QQAYL (Escherichia coli, UniProt P23836)).

Set 3 — technique: RNA Bind-n-Seq; form: RNA; medium: in vitro; concentration: 365 nM; reference: no-protein control; direction: higher = stronger binding
Target: RNA binding protein fox-1 homolog 2, RRM domain, GST-SBP tag (RBFOX2, Homo sapiens, UniProt O43251-10, residues 100-194)
Setting: natural RNA segment, single round, ends assumed
Residues (chain): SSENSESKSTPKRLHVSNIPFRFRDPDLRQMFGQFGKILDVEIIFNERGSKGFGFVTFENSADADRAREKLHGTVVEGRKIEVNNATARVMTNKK
For `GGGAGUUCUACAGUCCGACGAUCCAUACAAGAUGACCCUCUGAGCUUUUCAUUUAUUCAAGCUCUGUGGUACAGCCUUUUUUUAAAAUAAAUUAAUCUAUAUUGGUUGACAAACAAGCCACCAACCACUGACUUGGAAUUCUCGGGUGCCAA`, “RBNS enrichment (R)” read 0.524.
For `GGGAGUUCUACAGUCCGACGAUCACCAAGACUGCAGUCAAGAAGGGAGGGUGAGCCUCACGAUCUUGGGUCUCAGGGCCUGACAUAGGGGUCUUAGCUCAGCCAUAUCCCUCUGAGGCACAGGGCGAGCAGGGUGGAAUUCUCGGGUGCCAA`, “RBNS enrichment (R)” read 0.288.
`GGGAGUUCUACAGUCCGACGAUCUGCACAGCCACCUCAGCCAGCCCCCAGGUAGAAACGUGGGUUAAGCUCUUCCUGCCCCGUUCAGCUUCACUCCCACCCUUUCAGCGUCCUGCCCCUUCACCUUGACCCGGUGGAAUUCUCGGGUGCCAA` — result for “RBNS enrichment (R)”: 0.91.
Under “RBNS enrichment (R)”, `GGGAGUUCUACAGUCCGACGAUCCAAAUAUGAGUGUGUGGAUGCUUUAAUUCAUUUAACCUCACUCCUCAAAGGUAACAUGCAACUUAGUUCUGUUAUAUGAGAGUCUUUUUCUUUAAUGUACUGGAAAAAGCUGGAAUUCUCGGGUGCCAA` is recorded as 0.366.
`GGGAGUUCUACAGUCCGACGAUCCCAGGACAGCCACAGUUGUACUGAGGGGGGCUGACAUGUUUGGCAUCCUGGCUAUAGUAUUGUAUACACAGGGCCACCAGCCCCGCCCUAGUGGUCAGCUCUGAGGGGGGUGGAAUUCUCGGGUGCCAA` — result for “RBNS enrichment (R)”: 0.268.
For `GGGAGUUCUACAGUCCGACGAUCCUUUUCCCACCAACUCCUAUUUCCCUACCAACCAAGGAGCCUCCAGAAGGAAAGGAGGAAGAAAUGUUUUCUUAGGGGAAUUCGCUAGGUUUUAACGAUUUGUUUCUCCUUGGAAUUCUCGGGUGCCAA`, “RBNS enrichment (R)” read 0.449.
`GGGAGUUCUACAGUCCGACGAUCGUCUAGAGGAAUUUUUGUUUCCUUGAUUAACAUGAUUUUCCUGGUUGUUACAUCCAGGGCAUGGCAGUGGCCUCAGCCUUAAACUUUUGUUCCUACUCCCACCCUCAGCGUGGAAUUCUCGGGUGCCAA`: “RBNS enrichment (R)” 0.321.
Under “RBNS enrichment (R)”, `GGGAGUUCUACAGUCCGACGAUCUUGGAAAAAAGGCACAGCAAAUAUCAAAUUUUCUCAACUAAUACUAAAGAAGAGACUACAUUAUUUAUUUUUUAAAUUAAGCCUUCAAUAAUAAAGUGAGUAUACAAAUUUGGAAUUCUCGGGUGCCAA` is recorded as 0.776.
`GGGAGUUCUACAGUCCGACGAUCGAUCUAUUGCAGAUAUUUGAUGUAGUUUUCUUUUUUAAAUUAAUCAGAAACCCCACUUCCAUUGUAUUGUCUGACACAUGCUCUCAAUAUAUAAUAAAUGGGAAAUGUCGUGGAAUUCUCGGGUGCCAA` — result for “RBNS enrichment (R)”: 0.411.
For `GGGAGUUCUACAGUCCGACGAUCUUAAUUCAGCCUGGCCUCGAAACACUGUCCUGAGCACCCGUCAACUCUGAGAGGAAGUGUGGAGAGUCUCCAUCCAACUCUGCUCCUACUGAGUAAAGUCCCCUUCCCUCUGGAAUUCUCGGGUGCCAA`, “RBNS enrichment (R)” read 0.19.

Single results of other studies — technique: yeast growth competition, sequencing; medium: yeast; reference: not given; direction: higher = stronger binding
P1: GMNC docking peptide (human); KNAKRNLSSEFAN
P2: SCAPER docking peptide (human); SNARRSLNFGGST; partner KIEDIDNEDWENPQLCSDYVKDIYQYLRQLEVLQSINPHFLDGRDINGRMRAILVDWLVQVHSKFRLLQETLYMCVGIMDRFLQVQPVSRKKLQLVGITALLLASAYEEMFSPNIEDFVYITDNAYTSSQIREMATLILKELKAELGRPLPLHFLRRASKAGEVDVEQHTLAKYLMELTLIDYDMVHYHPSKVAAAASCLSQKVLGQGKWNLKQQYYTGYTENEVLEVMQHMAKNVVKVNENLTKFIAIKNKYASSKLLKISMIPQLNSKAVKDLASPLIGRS
P3: CDC6 docking peptide (human); TLKGRRLVFDNQL; partner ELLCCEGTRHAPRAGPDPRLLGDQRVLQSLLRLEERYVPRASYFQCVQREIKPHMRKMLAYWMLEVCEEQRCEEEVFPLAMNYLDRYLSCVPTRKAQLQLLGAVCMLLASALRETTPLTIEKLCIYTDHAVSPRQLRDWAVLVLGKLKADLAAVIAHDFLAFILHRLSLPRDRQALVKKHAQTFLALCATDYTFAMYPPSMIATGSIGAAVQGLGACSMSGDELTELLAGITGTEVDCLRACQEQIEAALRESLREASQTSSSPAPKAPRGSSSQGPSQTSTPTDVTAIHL
P4: PKN2 docking peptide (human); VSAVQKLDFSDTM; partner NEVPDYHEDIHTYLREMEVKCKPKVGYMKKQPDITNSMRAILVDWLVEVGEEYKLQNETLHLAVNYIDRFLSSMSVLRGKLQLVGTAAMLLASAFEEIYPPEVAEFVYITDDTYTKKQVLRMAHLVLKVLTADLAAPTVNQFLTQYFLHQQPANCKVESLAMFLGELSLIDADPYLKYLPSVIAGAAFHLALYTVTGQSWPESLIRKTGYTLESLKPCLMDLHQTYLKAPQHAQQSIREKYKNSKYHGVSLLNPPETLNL
For `P1 E10G`, “normalised enrichment score” read 0.381 (CCNE1, cyclin fold, Cln2 fusion (human); strong parent motif).
`P2 S6P` — result for “normalised enrichment score”: 0.347 (CCNB2, cyclin fold, Cln2 fusion (human); weak parent motif).
`P3 Q12I` — result for “normalised enrichment score”: 0.0892 (CCND3, cyclin fold, Cln2 fusion (human); weak parent motif).
`P4 T12P` — result for “normalised enrichment score”: 3.38 (CCNA2, cyclin fold, Cln2 fusion (human); strong parent motif).

For quick reference, copied from above (set 1):
The log fluorescence of `GAGGATATCGGGTTTCGAGACGTGCTA` is reported as 2.57 z-score.
For `AGTGGTATAGCACTAAGGGAGTGCTAG`, the log fluorescence was -1.19 z-score.
With `GAACCTTCCCCTCTAGGTTCGTGCTAG` the log fluorescence was 2.76 z-score.
`TTAGTACTGGGTCTCGGTTAGTGCTAG` has a log fluorescence of 1.22 z-score.
